{"data": "Experimental data pooled from the literature", "note": "Numbered parts are unrelated; each lists some results of a single study."}
{"data": "Set 1", "target": "Sal-like protein 4, full length isoform A (SALL4, Homo sapiens, UniProt Q9UJQ4, residues 1-1053)", "method": "universal PBM", "molecule type": "double-stranded DNA, one strand shown", "matrix": "in vitro", "concentration": "600 nM", "notes": "8-mer, flanks averaged, mean of replicates", "reading": "higher = stronger binding", "UniProt Q9UJQ4, sequence (whole entry, looked up)": "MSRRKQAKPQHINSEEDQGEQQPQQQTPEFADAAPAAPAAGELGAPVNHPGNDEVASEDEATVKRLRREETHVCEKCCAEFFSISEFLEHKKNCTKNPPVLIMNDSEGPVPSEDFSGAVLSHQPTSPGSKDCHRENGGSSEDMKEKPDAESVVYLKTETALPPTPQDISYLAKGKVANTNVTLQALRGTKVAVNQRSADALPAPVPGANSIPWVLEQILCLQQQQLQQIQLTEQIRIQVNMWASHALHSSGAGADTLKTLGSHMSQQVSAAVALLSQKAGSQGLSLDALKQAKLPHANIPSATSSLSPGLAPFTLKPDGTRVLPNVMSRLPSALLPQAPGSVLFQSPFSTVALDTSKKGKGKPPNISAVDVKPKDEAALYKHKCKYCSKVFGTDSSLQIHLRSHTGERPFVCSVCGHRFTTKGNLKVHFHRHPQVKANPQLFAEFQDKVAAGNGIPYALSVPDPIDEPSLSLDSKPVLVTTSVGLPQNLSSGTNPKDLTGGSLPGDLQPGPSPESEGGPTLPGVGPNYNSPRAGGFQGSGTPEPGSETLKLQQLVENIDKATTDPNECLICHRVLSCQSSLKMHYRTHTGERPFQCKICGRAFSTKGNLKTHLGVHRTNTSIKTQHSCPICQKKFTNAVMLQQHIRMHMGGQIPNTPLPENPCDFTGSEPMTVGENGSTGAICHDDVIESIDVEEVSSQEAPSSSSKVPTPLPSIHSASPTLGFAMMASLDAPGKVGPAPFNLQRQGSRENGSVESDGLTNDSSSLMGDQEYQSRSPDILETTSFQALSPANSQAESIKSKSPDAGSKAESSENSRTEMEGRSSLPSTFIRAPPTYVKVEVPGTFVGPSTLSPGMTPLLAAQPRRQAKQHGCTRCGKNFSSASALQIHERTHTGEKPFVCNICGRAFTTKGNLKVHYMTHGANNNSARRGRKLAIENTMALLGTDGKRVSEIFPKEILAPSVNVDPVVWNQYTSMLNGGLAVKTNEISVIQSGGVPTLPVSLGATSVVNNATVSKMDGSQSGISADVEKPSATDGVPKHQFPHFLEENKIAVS"}
{"Strand": "CTAGTCTC", "E-score": -0.0743}
{"Strand": "CACCTGCC", "E-score": -0.202}
{"Strand": "ACAGAACT", "E-score": 0.17}
{"Strand": "GGATGGGA", "E-score": -0.157}
{"Strand": "ATTCTAAG", "E-score": 0.0216}
{"Strand": "AAAAACAC", "E-score": 0.0964}
{"Strand": "CTACGCCA", "E-score": -0.148}
{"Strand": "GCAGATAA", "E-score": 0.144}
{"Strand": "CGGGAGCA", "E-score": -0.286}
{"Strand": "CATTTAAG", "E-score": 0.21}
{"Strand": "GTGACTTA", "E-score": 0.0799}
{"Strand": "GAGGTCCC", "E-score": -0.328}
{"Strand": "CCGTGGTA", "E-score": -0.0777}
{"Strand": "TAAGATAA", "E-score": 0.155}
{"Strand": "AAGATACC", "E-score": 0.0709}
{"Strand": "AACCACAT", "E-score": 0.192}
{"Strand": "AAATACGT", "E-score": 0.162}
{"data": "Set 2", "target": "Prothrombin, mature alpha-thrombin (F2, Homo sapiens, UniProt P00734)", "method": "aptamer microarray, sandwich", "molecule type": "DNA with 2'F-ANA", "matrix": "in vitro", "concentration": "200 nM", "notes": "whole 15-mer aptamer, many near background", "added": "Cy3 exosite-II aptamer, 400 nM", "reading": "higher = stronger binding", "strand": "GGTTGGTGTGGTTGG"}
{"Modification": "2'F-ANA at 1 3 4 11 14 15", "mean fluorescence intensity [a.u.]": 73.8}
{"Modification": "2'F-ANA at 1 2 5 6 8 9 13 14", "mean fluorescence intensity [a.u.]": 62.8}
{"Modification": "2'F-ANA at 2 4 5 8 9 10 13 14", "mean fluorescence intensity [a.u.]": 47.4}
{"Modification": "2'F-ANA at 1 5 6 8 10 12 15", "mean fluorescence intensity [a.u.]": 45.4}
{"Modification": "2'F-ANA at 2 3 5 6 9 10 12", "mean fluorescence intensity [a.u.]": 59.4}
{"Modification": "2'F-ANA at 4 5 6 9 11", "mean fluorescence intensity [a.u.]": 92.4}
{"Modification": "2'F-ANA at 2 6 8 9 11 13 14", "mean fluorescence intensity [a.u.]": 109}
{"Modification": "2'F-ANA at 1 2 3 6 9 11 12 13 14", "mean fluorescence intensity [a.u.]": 73.9}
{"Modification": "2'F-ANA at 3 4 5 7 11 12 13", "mean fluorescence intensity [a.u.]": 137}
{"Modification": "2'F-ANA at 2 4 5 7 11 12 14", "mean fluorescence intensity [a.u.]": 76.7}
{"Modification": "2'F-ANA at 1 4 5 6 7 8 10 11 13 15", "mean fluorescence intensity [a.u.]": 51.7}
{"Modification": "2'F-ANA at 3 5 6 8 9 10 13 15", "mean fluorescence intensity [a.u.]": 52.3}
{"Modification": "2'F-ANA at 3 4 5 6 7 8 9 10 12", "mean fluorescence intensity [a.u.]": 87.5}
{"Modification": "2'F-ANA at 1 2 3 4 5 6 7 10 12 14", "mean fluorescence intensity [a.u.]": 52.7}
{"Modification": "2'F-ANA at 1 2 3 6 7 14 15", "mean fluorescence intensity [a.u.]": 71.5}
{"Modification": "2'F-ANA at 2 4 9 11 12 13 14 15", "mean fluorescence intensity [a.u.]": 92.5}
{"Modification": "2'F-ANA at 2 3 5 8 9 10 11 12 14 15", "mean fluorescence intensity [a.u.]": 51.7}
{"Modification": "2'F-ANA at 1 4 5 7 9 11 12 13", "mean fluorescence intensity [a.u.]": 72.5}
{"Modification": "2'F-ANA at 1 2 3 5 6 7 8 9 10 11 14", "mean fluorescence intensity [a.u.]": 55.6}
{"Modification": "2'F-ANA at 1 5 6 7 8 12", "mean fluorescence intensity [a.u.]": 129}
{"Modification": "2'F-ANA at 2 6 7 10 11 13 14 15", "mean fluorescence intensity [a.u.]": 76.2}
{"Modification": "2'F-ANA at 3 4 5 8 10 12", "mean fluorescence intensity [a.u.]": 61.7}
{"Modification": "2'F-ANA at 1 2 4 13 15", "mean fluorescence intensity [a.u.]": 93}
{"Modification": "2'F-ANA at 1 5 6 7 8 11 14 15", "mean fluorescence intensity [a.u.]": 77.5}
{"Modification": "2'F-ANA at 4 7 8 10 11 13", "mean fluorescence intensity [a.u.]": 73.9}
{"data": "Set 3", "target": "RNA binding protein fox-1 homolog 2, RRM domain, GST-SBP tag (RBFOX2, Homo sapiens, UniProt O43251-10, residues 100-194)", "method": "RNA Bind-n-Seq", "molecule type": "RNA", "matrix": "in vitro", "concentration": "365 nM", "notes": "natural RNA segment, single round, ends assumed", "baseline": "no-protein control", "reading": "higher = stronger binding", "shared flanks, not repeated": "GGGAGUUCUACAGUCCGACGAUC … UGGAAUUCUCGGGUGCCAA", "Residues (chain)": "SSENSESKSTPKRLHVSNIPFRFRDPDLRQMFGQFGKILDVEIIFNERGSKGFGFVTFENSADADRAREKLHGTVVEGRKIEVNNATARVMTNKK"}
{"Strand": "AGCUAACUCAGACUCCAGUGAAGAUGCUGAUGACUGAAGCCCCAGCAUGGGCCCCAUUGCUUGGGCGGCUGCUGUAUUUUCAUUUACUCUGGCCCUUGGACUAUGGAAAC", "RBNS enrichment (R)": 0.752}
{"Strand": "AUCCUGGGGGAUGGCCGUGCAUGGGGUGUACACUCGCUAUAGGCAUAGGCCCGGCAUGGCUGUCGCUGGACGCCAGCUGUGCACACCCAGCCACACCUGCUGCACGCCGC", "RBNS enrichment (R)": 1.88}
{"Strand": "AUGGCAGGUAGCUUCACUCAGUGAGUAGCAAGGGCACUCAGCUCUGAGGAUCUCAAUUCAUACAGGUGAAAAUCCUUAAAGGACUCUAUGAUUUAAACUCUGGAGUCAAA", "RBNS enrichment (R)": 0.43}
{"Strand": "UCCAGGGGCUGUAUGGGCAGAUUCAGUCUCCAGAGGGUAUUCAGAUCAUCUGCUUCUUUGAAGGAGUAAAUGUGUUUUGUUCCUAGGGCCAGAGGAGCUUGUCUUCCUUG", "RBNS enrichment (R)": 0.342}
{"Strand": "CAUGAAGAGUUUGGAUAUUUUUAAAACUAUACUCGAAUUUUCAUUUUUUCCUGUCCUGUAAAGAGAGAAUUCUUAAGAUAUCAGGCAUAAUGUAUGUACCUUUUCCAGAC", "RBNS enrichment (R)": 0.679}
{"Strand": "GAAACAAGAAGAAACAUUGUGAUUGCGAAGUGUCAUUUUGUUUUUUUUUUAAAUAACAUGUAUUAUGGUACAAUCAAAUUGUUCACAUUACCAAAGCAAUAUUUCUUUGG", "RBNS enrichment (R)": 0.422}
{"Strand": "GUACUUAUUUAUGUAGUCACUGUGUUUCUGGAAUUUUAUGUUAAUAAAAUUUUAAUUUAAAAAGGCUUGUCUGAGAACAUAUGAUUGACACUCUGGUCAAGACGGUCGUU", "RBNS enrichment (R)": 0.795}
{"Strand": "GAGGCACAGAGAAGAGGGAGACAGGUCCAGAGAGGGAUGGGGCCUCCACCAAGACCAUAUAGACCAUCUGGCGGGCUCAAGCCGGGGCUUUUUCCUCUCCAGUCCAAAAC", "RBNS enrichment (R)": 0.439}
{"data": "Set 4", "target": "RING finger protein unkempt homolog, zinc fingers 1-6, GST-SBP tag (UNK, Homo sapiens, UniProt Q9C0B0, residues 30-357)", "method": "RNA Bind-n-Seq", "molecule type": "RNA", "matrix": "in vitro", "concentration": "not given", "notes": "RNA with constant flanks, human-mouse chimeric sites, ends assumed", "baseline": "input RNA pool", "reading": "higher = stronger binding", "shared flanks, not repeated": "GGGAGUUCUACAGUCCGACGAUC … CAACAGAGGAUUGAGCAUCA", "UniProt Q9C0B0, sequence (30-357, looked up)": "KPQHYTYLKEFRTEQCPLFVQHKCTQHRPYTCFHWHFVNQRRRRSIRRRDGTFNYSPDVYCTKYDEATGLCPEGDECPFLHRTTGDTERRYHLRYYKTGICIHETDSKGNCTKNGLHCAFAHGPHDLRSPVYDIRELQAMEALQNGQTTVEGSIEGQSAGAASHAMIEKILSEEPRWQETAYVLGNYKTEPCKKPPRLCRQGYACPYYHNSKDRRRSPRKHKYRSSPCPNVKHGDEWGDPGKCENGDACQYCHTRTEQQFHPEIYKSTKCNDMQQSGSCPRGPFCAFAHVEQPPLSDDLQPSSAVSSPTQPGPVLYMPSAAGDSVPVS"}
{"Strand": "AAAGUGAUGACUAUGUUUGUCCAACGACAGGUGUUUGCGGAGAGCAAAGAUGAGAUUGCUUUAGUCCUCUAUGGCACAGAUGGCACUGAUAAUGCCCUUGCUGGCAAGGACCAGUAUCAG", "bound/input enrichment [ratio]": 0.278}
{"Strand": "GCAAAGGAUGAUGAGGCGGCAGCUGUUGCACUUUCCUCCCUGAUUCAUGCUUUGGAUGAGUUAAACAUGGUCGCCAUCGUCCGAUAUGCUUAUGACAAAAGAUCUAAUCCUCAAGUUGGU", "bound/input enrichment [ratio]": 0.103}
{"Strand": "UGACAAGGGCACUGCAGAGCCAUGCCUUUCCUUGACAUACAGAAAAAGCUGGGCAUCAGCCUGGACCGGCACUUUAUAAUCCAGAGUGCAGAACAGCCCUAUAAGAAGGCUGGUCGAUGC", "bound/input enrichment [ratio]": 0.114}
{"Strand": "GCUGAAAAUGAAGAAGAGGCAGCUGAUGUCUGGUACAACUUGGGACACAUAGCUGUGGGAAUCGGAGAUACAAAUUUGGCCCACCAAUGCUUCAGGCUGGCCCUGGUCCACAACAACCAC", "bound/input enrichment [ratio]": 0.166}
{"Strand": "UCAUUUUGCUCGGGUUAUUCUUUCCUUUAGGAAAAGCCUAAAGAUUAGGUUGUAAGAAAAACAGAAGCCAUGUUUCGAAGACCUGUGUUACAGGUAUUUCGUCAGUUUGUAAGACAUGAG", "bound/input enrichment [ratio]": 0.612}
{"Strand": "GGCUGCUGGUGACUGUCCUGGAGUGGCCGUGUCACCGGCCGGAGCGCGGCCAGACUAAUUAUAGAAAAUGCCAAGUAGGAAGUUUGUUGAGGGUGAAGUGGUCAGAGGCCGAUGGCCUGG", "bound/input enrichment [ratio]": 3.76}
{"Strand": "AAAGAGAAACUAAAGCAACUAAUAGAGAAGAGGAUUGGCAAAGAGAAUUUCAUAGAGAAACUAGGAUUUAUUAGCAAAACAUGAGUUUAUUCCAGAGCGUCUCAGAAAACCCCAGCCAAC", "bound/input enrichment [ratio]": 12.2}
{"Strand": "AGAGCCCAGGAUGUUGAUGCUACAAAUCCAAAUUACGAAAUUAUGUGUAUGAUCAGAGACUUCAGAGGGAGCUUGGAUUAUAGACCAUUAACAACAGCAGAUCCUAUUGAUGAACAUAGG", "bound/input enrichment [ratio]": 0.724}
